Results gathered from unrelated publications.
Every numbered part comes from another study and shows a few of its results, in no order. Changes are numbered by the printed parent chain.

Block 1 — method: protein-binding microarray; molecule type: double-stranded DNA, one strand shown; sample: in vitro; tested at: 2540 nM top; notes: 60-bp whole probe; added: salmon DNA 0.4 mg/ml; baseline: random background probes; direction: higher = stronger binding; measurement: fitted relative affinity; constant ends, left off below: GCCTAGCAC … GTCTTGATTCGCTTGACGCTGCTG
Target: Interferon regulatory factor 3, full length, phosphomimetic (IRF3, Homo sapiens, UniProt Q14653, residues 1-427, S386D/S396D/S398D/S402D/T404D/S405D)
Target sequence (chain): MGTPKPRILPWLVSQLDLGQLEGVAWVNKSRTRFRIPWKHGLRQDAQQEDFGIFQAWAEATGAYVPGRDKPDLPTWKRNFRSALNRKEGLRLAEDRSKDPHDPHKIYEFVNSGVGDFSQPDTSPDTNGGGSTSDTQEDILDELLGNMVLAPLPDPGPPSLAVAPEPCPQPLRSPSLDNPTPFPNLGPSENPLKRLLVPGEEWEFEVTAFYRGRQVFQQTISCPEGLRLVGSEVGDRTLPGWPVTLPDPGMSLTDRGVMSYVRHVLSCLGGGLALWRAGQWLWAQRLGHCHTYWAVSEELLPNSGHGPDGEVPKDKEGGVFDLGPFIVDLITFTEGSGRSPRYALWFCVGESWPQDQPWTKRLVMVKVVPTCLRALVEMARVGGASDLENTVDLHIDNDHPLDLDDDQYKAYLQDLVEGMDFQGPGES
GACGGACTGGGTCTCGGGAAGTGCTAG: -0.953 z-score
TTAGAACTGGGGTTCCGATTAGTGCTA: 0.868 z-score
TCAGTCCTCACTTCCTTCTGGTGCTAG: 0.359 z-score
TCATTTTTTTTCCTAATACTGTGCTAG: 2.1 z-score
TTAGGACTGCTACTTCTTTAGTGCTAG: -0.282 z-score
TTTGAACTGAGTATCGATTAGTGCTAG: 0.297 z-score
GACGGTTTCGACTTTCAGGACGTGCTA: 4.05 z-score
TCATTTTTATCAATCATACTGTGCTAG: 1.56 z-score
GACGCACTGGGGACTGGGGACGTGCTA: -0.83 z-score
TTCCCTCTGCTCCTCTTTTTGTGCTAG: 0.524 z-score
TTAGGACTGGGGTATTGGTTAGTGCTA: -0.984 z-score
TTAGATCTAAGTCTCGATTAGTGCTAG: 0.0434 z-score
TCACCATCCTGTATGGAACTGTGCTAG: 1.07 z-score
GACGGACTGCTTATCCTGAAGTGCTAG: -0.412 z-score
TCACTTTGCTCATTTTTCACTGTGCTA: 0.911 z-score
GACGGTTTCCATATCCTGACGTGCTAG: 6.92 z-score
TTAGGACTGGGGACTGAGTTAGTGCTA: -0.978 z-score
GATGAACTGAGACTGGAGACGTGCTAG: -0.508 z-score
TGAGGTTTCGACTATCGGTTAGTGCTA: 2.01 z-score
GCCGGTTTCGGGACTGGGGACGTGCTA: 4.89 z-score
GACGATATCGGGGCTGGAGACGTGCTA: -0.351 z-score
TTAGGACTGGATTTTCGGTTAGTGCTA: 0.663 z-score
TTAGGTATCCTTATCCTTTTGTGCTAG: 5.32 z-score
GAGTGTTTCTTCTGCTGACAGTGCTAG: 0.76 z-score
GACGGTATCGGTCACGGGACGTGCTAG: 1.92 z-score

Block 2 — target: CCND1, cyclin fold, Cln2 fusion (human); method: yeast growth competition, sequencing; sample: yeast; notes: strong parent motif; baseline: not given; direction: higher = stronger binding; measurement: normalised enrichment score
Starting sequence: RBL2 docking peptide (human); STTRRRLFVENDS
STHRRRLFVENDS [T3H]: -0.337
STTLRRLFVENDS [R4L]: -0.0954
STTRRRLFVMNDS [E10M]: 0.695
STRRRRLFVENDS [T3R]: -0.112
SNTRRRLFVENDS [T2N]: 1.5
STTRRRLFVENDN [S13N]: 0.257
ITTRRRLFVENDS [S1I]: 0.214
SRTRRRLFVENDS [T2R]: 0.753
STTHRRLFVENDS [R4H]: 1.08
YTTRRRLFVENDS [S1Y]: 0.881
LTTRRRLFVENDS [S1L]: 0.309
STTRRRLFVEPDS [N11P]: 1.5
PTTRRRLFVENDS [S1P]: 0.361
STTRRRLFVQNDS [E10Q]: -0.207
SGTRRRLFVENDS [T2G]: 1.54
STTRRYLFVENDS [R6Y]: -0.225
STTRCRLFVENDS [R5C]: 0.665
STTRRRCFVENDS [L7C]: -0.111
STTRRRLFTENDS [V9T]: 2.02
STTRRRLFVENCS [D12C]: 0.171
STTRRRLNVENDS [F8N]: 0.0295
STERRRLFVENDS [T3E]: -0.0321
TTTRRRLFVENDS [S1T]: 0.503
SWTRRRLFVENDS [T2W]: 1.56
STTRRGLFVENDS [R6G]: -0.056

Block 3 — method: protein-binding microarray; molecule type: double-stranded DNA, one strand shown; sample: in vitro; tested at: not given; direction: higher = stronger binding; measurement: E-score
Target: Myc proto-oncogene protein, bHLH-zipper, MAX partner unstated (MYC, Homo sapiens, UniProt P01106, residues 368-449)
Sequence of UniProt P01106 (368-449, looked up): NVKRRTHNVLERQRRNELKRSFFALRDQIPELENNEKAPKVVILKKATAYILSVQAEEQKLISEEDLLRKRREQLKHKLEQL
Notes: k-mer, scored over probes, only values ≥0.25
CAGCGCGG: 0.295
GTGGCATA: 0.252
GAACACAC: 0.262
CACATGTG: 0.482
ACATGGAA: 0.335
ACCACCAC: 0.303
CATGCCAG: 0.335
CTACATGC: 0.283
CCCTCCCA: 0.35
AGTCACGC: 0.394
CACGCATA: 0.31
CAAACATG: 0.264
CATGCCGG: 0.38
ACATGTAT: 0.346
CATGCTCG: 0.388
CGGACACA: 0.256

Block 4 — method: RNA Bind-n-Seq; molecule type: RNA; sample: in vitro; tested at: not given; baseline: input RNA pool; direction: higher = stronger binding; measurement: bound/input enrichment
Target: RING finger protein unkempt homolog, zinc fingers 1-6, GST-SBP tag (UNK, Homo sapiens, UniProt Q9C0B0, residues 30-357)
Notes: RNA with constant flanks, human and mouse sites, ends assumed
Constant ends, left off below: GGGAGUUCUACAGUCCGACGAUC … CAACAGAGGAUUGAGCAUCA
Residues (chain): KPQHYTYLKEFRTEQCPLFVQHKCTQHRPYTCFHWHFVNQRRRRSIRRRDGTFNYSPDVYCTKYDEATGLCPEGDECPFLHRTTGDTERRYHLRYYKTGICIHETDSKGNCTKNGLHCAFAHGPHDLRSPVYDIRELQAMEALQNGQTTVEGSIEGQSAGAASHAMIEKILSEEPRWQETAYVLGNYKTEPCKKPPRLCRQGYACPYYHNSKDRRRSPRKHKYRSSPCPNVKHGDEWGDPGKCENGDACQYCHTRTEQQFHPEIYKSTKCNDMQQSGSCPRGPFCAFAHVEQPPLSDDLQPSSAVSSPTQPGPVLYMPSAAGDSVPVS
UAAACAUUGUAUGCAUUUUGAUUUUUCCUACUUUAAGAAAAUAAAAUAAUUUAAUUUUACAUUAGAUUCCACGUUAGAUUUGGUUUGAAAAACUAAAAUUUCAGAUUUCUGAGGAUAUAC: 1.77 ratio
CGGCGCGAGGCAGUAUGGUUUGAAGUGGUGAACAUGGAUUUUUCUCGGCUUCACAUGUACAGUCCUCCCCAGUGUGUGCCGGAGAACACGGGCUACACGUAUGCGCUCAGUUCCAGCUAU: 0.0949 ratio
GGUGUAUUUAUGCUGUCUGAUUACAGAAUCACUGGAAAUACUGUGCUGUGUUACUGCUGUGGUCUGCGUAGCUUCCGAGAGCUGACCUACCAGUAUCGUCAGAACAUUCCUGCUUCUGAG: 0.135 ratio
ACUGCGUUUCAAGCGGCGUCUGCUCUGGGGGCAGAGUUUGCGUCAGAGGCAUGCAGAGAGUUGGGUUUCUCCAGCAACUUGCUCUGCAGCUCUUGCGAUCUUCUUGGACAGUUUAAUCUG: 0.0994 ratio
UUCCCGUUUCUAAUCAGGGUUGUUAAACAUGAGCCUGCGGAAGCAAACCCCUAGCGACUUCUUAAAGCAGAUCAUCGGACGGCCAGUUGUGGUGAAAUUAAAUUCUGGCGUGGAUUAUCG: 0.38 ratio
GGAGGCUAUGGAGGCUAUGAUGAUUACAAUGGCUAUAAUGAUGGCUAUGGAUUUGGGUCAGAUAGAUUUGGAAGAGACCUCAAUUACUGUUUUUCAGGAAUGUCUGAUCACAGAUACGGG: 0.439 ratio
CCCCCUCCAGCAUUGCCACCUCUCCUACAAGCACGCAGGCACAUAAACGUAGGCUUUUGAUGCUCCUCUGCCUGUUGACCCCGCUAUUUUCAUGUUUCCAACAGGUUUUUCUUCCCCCAA: 2.34 ratio
GAAAGGGACGGUGGGACCAGUUACUCUCCACAAGAAAACUCACACAACCACAGUGCACUUCAUAGUUCAAAUUCACAUUCUUCUAAUCCAAGCAAUAAUCCAAGCAAAACUUCAGAUGCA: 1.54 ratio
CCUUGGCCGACUACACCAGAGAAUACACAUUCAGUGACAUCUUGCUGAUGCUGUGCUUGCUAGUACUGCCAAGGCGAGUGUGUGGCCUUUCUUUCCAGCUCUCUGCAGAGAUGCUGGGGA: 0.0953 ratio
GACUGGGAGAUGUCACAGUCUUCCAUAAAGAGCUCGAUUUGUCUCCUGAGAGGGAAGAUCUAUGAUGCUUUAGAUAAUCGCACCCUGGCUACCUACAGUUACAAAGAGGCUCUGAAACUG: 0.164 ratio
AGUAGUCAAGGGUAUCAAUGGAUCUGAUCUGAGGAAACACAGGAAGACAGCUCUACAACUGUCUACAACAGCUGGUAGGGCAAGGCUCUGUCUUCUGUGUGUGACGCGUGUAUUGAACAG: 0.115 ratio

Block 5 — method: DHFR PCA, deep sequencing; sample: yeast; added: (+)-ABA 710 µM; baseline: wild-type fitted maximum; direction: higher = stronger binding; measurement: relative binding score
Target: ABI1, truncated, D143A, DHFR fusion (Arabidopsis thaliana)
Notes: methotrexate growth selection, single substitutions
Starting sequence: PYL1, truncated, DHFR fusion (Arabidopsis thaliana); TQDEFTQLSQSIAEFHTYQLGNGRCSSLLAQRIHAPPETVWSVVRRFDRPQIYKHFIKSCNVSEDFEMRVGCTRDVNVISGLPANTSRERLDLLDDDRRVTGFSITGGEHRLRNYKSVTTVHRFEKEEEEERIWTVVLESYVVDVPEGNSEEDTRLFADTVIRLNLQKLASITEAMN; partner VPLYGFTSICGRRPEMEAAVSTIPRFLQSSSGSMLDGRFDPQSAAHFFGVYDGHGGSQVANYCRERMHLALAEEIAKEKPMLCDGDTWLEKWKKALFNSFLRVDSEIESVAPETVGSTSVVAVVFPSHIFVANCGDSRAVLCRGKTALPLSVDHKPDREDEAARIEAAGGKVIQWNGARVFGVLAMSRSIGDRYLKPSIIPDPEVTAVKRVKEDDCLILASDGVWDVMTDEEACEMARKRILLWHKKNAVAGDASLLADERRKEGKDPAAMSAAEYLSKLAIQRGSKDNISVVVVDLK
D65C: 97.2%
S11D: 104%
R46G: 95.1%
I33M: 96.6%
Y53A: 72.5%
G23L: 91%
S171K: 101%
G81W: -3.74%
R132T: 115%
S140T: 34.4%
V121S: 13%
E89C: -15.2%
V118L: 95.1%
R155W: 57.9%
S9T: 105%
G107R: 82.6%
S140R: 25.2%
C25E: 51.1%

Block 6 — method: universal PBM; molecule type: double-stranded DNA, one strand shown; sample: in vitro; tested at: not given; direction: higher = stronger binding; measurement: E-score
Target: Sal-like protein 4, full length isoform B (SALL4, Homo sapiens, UniProt Q9UJQ4-2, residues 1-616)
Notes: 8-mer, flanks averaged, mean of replicates
Residues (chain): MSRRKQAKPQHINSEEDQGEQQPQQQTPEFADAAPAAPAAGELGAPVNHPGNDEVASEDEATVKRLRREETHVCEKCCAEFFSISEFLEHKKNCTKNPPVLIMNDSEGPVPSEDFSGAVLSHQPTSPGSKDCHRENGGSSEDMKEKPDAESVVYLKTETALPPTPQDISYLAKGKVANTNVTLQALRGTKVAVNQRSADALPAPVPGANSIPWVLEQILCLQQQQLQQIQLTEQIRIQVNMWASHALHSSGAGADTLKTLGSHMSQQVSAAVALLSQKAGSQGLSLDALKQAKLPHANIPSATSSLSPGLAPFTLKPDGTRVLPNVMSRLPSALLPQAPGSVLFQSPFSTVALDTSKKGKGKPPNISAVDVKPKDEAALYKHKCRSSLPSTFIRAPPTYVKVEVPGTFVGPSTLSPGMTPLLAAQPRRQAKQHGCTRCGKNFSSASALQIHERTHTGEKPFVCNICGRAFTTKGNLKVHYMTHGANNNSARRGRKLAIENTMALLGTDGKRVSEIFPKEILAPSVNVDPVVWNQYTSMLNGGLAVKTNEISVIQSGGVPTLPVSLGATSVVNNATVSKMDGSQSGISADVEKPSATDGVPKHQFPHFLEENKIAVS
GGTCGGTA: -0.142
AATTTAAG: 0.232
CGCAGGCA: -0.165
CTAGAATC: -0.0647
ATCAGGCG: -0.226
CTTATTTA: 0.25
AACGATGA: 0.048
GCAAGGAC: -0.216
TAGTCATA: 0.337
AAGGGATA: 0.177
GCCGATTA: 0.0923
ATGACAAA: 0.23
CGTAATTA: 0.331
CGGAATAA: 0.045
AAATTCCT: 0.0407
CATCCGCA: -0.0121
ACGCGGGG: -0.284
GACCCGGA: -0.45
GACGCTAC: -0.129
CTGAGTGA: -0.0923

Other studies, line by line
PhoQ, residues 284 288 289 292 302 303 GLASVI — fold induction (PhoP, residues 12 14 15 18 19 NQGLL (Escherichia coli, UniProt P23836); Sort-seq, item: YFP reporter; E. coli; PhoQ-PhoP variant library, added: 10 µM Mg2+; baseline: high Mg2+ state, higher = stronger signaling): 7

Excerpt of the above (block 3):
CCCTCCCA: 0.35
AGTCACGC: 0.394
CACGCATA: 0.31
CAAACATG: 0.264
CATGCCGG: 0.38
ACATGTAT: 0.346
CATGCTCG: 0.388
CGGACACA: 0.256
